{"data": "Results collected from several papers", "note": "A part holds a random share of what one study measured."}
{"data": "Block 1", "target": "RNA binding protein fox-1 homolog 2, RRM domain, GST-SBP tag (RBFOX2, Homo sapiens, UniProt O43251-10, residues 100-194)", "technique": "RNA Bind-n-Seq", "molecule type": "RNA", "matrix": "in vitro", "tested at": "365 nM", "notes": "natural RNA segment, single round, ends assumed", "reference": "no-protein control", "reading": "higher = stronger binding"}
{"Sequence": "GGGAGUUCUACAGUCCGACGAUCUCAUGCUCAGCAGCCAGGGCCACAUCAAACUGACAGACUUUGGACUUUGCAAGGAGUCCAUUCAUGAGGGUGCUAUCACUCACACCUUCUGUGGCACCAUUGAGUACAGGUGGAAUUCUCGGGUGCCAA", "RBNS enrichment (R)": 0.506}
{"Sequence": "GGGAGUUCUACAGUCCGACGAUCCGGGGAUGAAGCAGUAGCUAGGUUGCUUAACCUCCCCUCUCCAGCAGAGGCAUAAUCCAGAUAAGUAGCAGAUGUCAUAUUUCAUAAGCUCUUUUGGCCUGGGUACAGCAUGGAAUUCUCGGGUGCCAA", "RBNS enrichment (R)": 13}
{"Sequence": "GGGAGUUCUACAGUCCGACGAUCGUUUACUCUAUCGCAUUUCUGUAACAUGAAAUGCAUGCCCUUCUUCAGGGGAAGACUGUGGUCAAGUUAAAAAAAAAAAACAAUAUUAAACAACAUGAAACUGCAGUCUGUGGAAUUCUCGGGUGCCAA", "RBNS enrichment (R)": 0.386}
{"data": "Block 2", "target": "Sal-like protein 4, full length isoform A (SALL4, Homo sapiens, UniProt Q9UJQ4, residues 1-1053)", "technique": "universal PBM", "molecule type": "double-stranded DNA, one strand shown", "matrix": "in vitro", "tested at": "600 nM", "notes": "8-mer, flanks averaged, mean of replicates", "reading": "higher = stronger binding", "sequence of UniProt Q9UJQ4 (whole entry, looked up)": "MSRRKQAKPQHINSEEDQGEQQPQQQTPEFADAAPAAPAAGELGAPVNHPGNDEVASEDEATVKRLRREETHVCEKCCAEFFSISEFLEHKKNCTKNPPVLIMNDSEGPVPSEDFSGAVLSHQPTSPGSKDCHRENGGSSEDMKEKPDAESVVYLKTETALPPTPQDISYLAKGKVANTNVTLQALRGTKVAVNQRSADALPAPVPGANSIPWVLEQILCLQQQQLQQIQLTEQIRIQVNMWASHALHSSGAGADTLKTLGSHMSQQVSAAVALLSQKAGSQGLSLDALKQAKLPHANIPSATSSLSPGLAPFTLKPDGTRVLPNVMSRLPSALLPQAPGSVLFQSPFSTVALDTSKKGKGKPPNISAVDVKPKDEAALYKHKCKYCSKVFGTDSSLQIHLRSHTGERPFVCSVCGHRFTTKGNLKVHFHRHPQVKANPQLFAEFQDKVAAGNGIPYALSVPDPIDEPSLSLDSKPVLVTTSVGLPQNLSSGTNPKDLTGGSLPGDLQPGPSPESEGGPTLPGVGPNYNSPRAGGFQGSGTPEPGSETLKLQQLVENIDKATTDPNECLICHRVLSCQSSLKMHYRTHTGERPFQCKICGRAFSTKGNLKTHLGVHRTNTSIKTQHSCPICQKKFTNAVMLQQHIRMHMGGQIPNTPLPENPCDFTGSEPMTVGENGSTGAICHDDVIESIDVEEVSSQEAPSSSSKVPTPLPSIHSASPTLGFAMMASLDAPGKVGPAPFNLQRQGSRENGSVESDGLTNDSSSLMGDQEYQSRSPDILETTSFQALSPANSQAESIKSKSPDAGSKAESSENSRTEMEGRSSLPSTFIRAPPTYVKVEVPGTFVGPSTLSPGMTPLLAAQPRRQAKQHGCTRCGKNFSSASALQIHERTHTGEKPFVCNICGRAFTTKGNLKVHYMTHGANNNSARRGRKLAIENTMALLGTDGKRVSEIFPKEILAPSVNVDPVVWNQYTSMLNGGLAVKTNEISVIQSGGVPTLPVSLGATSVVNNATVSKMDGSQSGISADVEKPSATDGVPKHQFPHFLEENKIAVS"}
{"Sequence": "CCATGACA", "E-score": 0.0243}
{"Sequence": "CGACTAAA", "E-score": 0.062}
{"Sequence": "GGCGAAGA", "E-score": -0.198}
{"data": "Block 3", "target": "Ras GTPase-activating protein-binding protein 1, RRM domain (G3BP1, Homo sapiens, UniProt Q13283)", "technique": "RNA Bind-n-Seq", "molecule type": "RNA", "matrix": "in vitro", "tested at": "1 µM", "notes": "whole 134-nt RNA, ends assumed", "together with": "150 mM KCl", "reference": "input library", "reading": "higher = stronger binding", "sequence of UniProt Q13283 (whole entry, looked up)": "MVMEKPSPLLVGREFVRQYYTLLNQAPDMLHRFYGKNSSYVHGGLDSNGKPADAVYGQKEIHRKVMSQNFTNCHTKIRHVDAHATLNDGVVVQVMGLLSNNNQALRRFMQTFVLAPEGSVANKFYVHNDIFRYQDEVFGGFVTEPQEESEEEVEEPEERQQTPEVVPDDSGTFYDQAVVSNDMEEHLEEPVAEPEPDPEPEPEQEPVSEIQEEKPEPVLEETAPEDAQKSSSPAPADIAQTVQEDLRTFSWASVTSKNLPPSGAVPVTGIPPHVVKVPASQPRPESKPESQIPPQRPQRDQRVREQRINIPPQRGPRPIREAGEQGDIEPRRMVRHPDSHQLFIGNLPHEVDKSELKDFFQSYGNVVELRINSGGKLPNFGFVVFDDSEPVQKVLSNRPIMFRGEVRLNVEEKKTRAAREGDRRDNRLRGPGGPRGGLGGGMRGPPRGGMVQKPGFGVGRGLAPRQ"}
{"Sequence": "GGGAGUUCUACAGUCCGACGAUCCACAGACAACACGCACCCACACAGACACAGAGGGAAGGGGUUGGGAUGGGGACAGGGUGCACAGCAGGGCGGGGUAGGACCCCAUCCCCUUGGAAUUCUCGGGUGUCAAGG", "log2 enrichment": -0.484}
{"Sequence": "GGGAGUUCUACAGUCCGACGAUCUCCUGUGCUACACAUCGUAUGUACCGAAUCGGGAAAAAAGGGAAAAAAGGGGAAAAAAGGAAAGUAUUAUGUUACGCCGUUCGGAUCUGCUGGAAUUCUCGGGUGUCAAGG", "log2 enrichment": -0.0249}
{"Sequence": "GGGAGUUCUACAGUCCGACGAUCAAGUCCUGUGCUACACAUCGUAUGUACCGAAUCGGGCCCCGGGCCCCGGCCCCGGGGAAAGUAUUAUGUUACGCCGUUCGGAUCUGCACUUGGAAUUCUCGGGUGUCAAGG", "log2 enrichment": -0.839}
{"data": "Further values, each from its own experiment"}
{"Molecule": "PhoQ, residues 284 288 289 292 302 303 TTSMTC", "target": "PhoP, residues 12 14 15 18 19 SPWRL (Escherichia coli, UniProt P23836)", "assay": "Sort-seq, refers to: YFP reporter", "test system": "E. coli", "setting": "PhoQ-PhoP variant library, together with: 10 µM Mg2+", "how to read": "reference: high Mg2+ state, higher = stronger signaling", "endpoint": "fold induction", "value": 8.29}
